Published values collected from several papers.
Compare with care: the assays were run in different laboratories. Converted amounts (≈) assume the structure as drawn.
PFF0160c E182D: Dihydroorotate dehydrogenase (quinone), mitochondrial (PFF0160c, Plasmodium falciparum, UniProt Q08210, E182D)
Sequence of UniProt P42680 (whole entry, looked up): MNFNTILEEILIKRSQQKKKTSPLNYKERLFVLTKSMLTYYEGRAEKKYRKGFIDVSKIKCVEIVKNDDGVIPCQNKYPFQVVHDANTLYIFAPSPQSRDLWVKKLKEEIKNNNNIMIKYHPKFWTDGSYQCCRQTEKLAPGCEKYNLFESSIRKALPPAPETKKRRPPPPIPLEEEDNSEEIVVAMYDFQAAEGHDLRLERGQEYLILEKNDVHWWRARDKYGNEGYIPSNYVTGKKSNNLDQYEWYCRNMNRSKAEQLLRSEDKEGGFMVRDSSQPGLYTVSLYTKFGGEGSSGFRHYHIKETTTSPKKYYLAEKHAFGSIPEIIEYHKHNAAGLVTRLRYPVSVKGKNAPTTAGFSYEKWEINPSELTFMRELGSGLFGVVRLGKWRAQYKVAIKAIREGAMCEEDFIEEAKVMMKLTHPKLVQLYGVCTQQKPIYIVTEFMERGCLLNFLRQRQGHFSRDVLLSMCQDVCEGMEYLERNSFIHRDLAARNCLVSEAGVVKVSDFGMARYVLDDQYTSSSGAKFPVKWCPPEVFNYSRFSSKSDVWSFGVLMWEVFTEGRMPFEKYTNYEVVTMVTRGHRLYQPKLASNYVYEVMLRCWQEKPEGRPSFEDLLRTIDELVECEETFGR
Sequence of UniProt P10721 (whole entry, unmodified, looked up): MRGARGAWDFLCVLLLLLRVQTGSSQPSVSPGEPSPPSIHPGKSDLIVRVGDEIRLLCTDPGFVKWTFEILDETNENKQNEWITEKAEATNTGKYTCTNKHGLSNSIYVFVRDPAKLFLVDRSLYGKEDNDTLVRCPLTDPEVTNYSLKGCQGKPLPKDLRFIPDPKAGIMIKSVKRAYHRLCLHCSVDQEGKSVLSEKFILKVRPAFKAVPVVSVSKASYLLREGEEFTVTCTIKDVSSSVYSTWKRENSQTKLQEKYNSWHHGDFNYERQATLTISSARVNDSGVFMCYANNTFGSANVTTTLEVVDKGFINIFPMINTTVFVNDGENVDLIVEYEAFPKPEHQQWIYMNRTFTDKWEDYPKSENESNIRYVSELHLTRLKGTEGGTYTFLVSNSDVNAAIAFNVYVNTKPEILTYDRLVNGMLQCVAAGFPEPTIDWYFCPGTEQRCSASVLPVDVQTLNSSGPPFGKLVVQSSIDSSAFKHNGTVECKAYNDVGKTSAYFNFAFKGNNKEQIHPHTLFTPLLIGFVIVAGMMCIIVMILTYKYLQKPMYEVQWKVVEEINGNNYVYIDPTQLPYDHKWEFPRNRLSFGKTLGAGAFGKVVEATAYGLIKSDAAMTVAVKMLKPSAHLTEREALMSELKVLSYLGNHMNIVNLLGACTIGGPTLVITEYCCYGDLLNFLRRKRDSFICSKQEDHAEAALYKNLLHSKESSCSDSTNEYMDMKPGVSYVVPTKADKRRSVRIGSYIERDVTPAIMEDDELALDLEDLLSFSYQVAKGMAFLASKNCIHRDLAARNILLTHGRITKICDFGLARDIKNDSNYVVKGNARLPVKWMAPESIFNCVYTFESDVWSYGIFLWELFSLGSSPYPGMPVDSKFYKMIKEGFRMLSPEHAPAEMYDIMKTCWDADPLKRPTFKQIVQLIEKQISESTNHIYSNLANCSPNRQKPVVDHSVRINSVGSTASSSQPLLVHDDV
Sequence of UniProt Q00537 (whole entry, looked up): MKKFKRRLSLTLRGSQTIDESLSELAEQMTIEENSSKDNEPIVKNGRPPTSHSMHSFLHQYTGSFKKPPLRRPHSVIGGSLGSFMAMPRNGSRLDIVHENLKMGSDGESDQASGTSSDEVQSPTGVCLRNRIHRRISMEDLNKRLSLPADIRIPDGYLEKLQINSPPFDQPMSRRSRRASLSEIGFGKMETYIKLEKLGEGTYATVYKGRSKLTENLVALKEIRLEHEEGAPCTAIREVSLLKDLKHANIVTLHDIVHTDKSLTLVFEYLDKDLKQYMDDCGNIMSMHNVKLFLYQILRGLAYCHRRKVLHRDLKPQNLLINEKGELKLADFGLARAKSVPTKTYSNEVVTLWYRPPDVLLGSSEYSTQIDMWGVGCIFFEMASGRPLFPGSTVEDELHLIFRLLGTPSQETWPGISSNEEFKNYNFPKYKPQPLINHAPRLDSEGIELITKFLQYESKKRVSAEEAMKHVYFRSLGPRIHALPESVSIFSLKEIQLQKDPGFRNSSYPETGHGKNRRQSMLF
Sequence of UniProt Q9H4B4 (whole entry, looked up): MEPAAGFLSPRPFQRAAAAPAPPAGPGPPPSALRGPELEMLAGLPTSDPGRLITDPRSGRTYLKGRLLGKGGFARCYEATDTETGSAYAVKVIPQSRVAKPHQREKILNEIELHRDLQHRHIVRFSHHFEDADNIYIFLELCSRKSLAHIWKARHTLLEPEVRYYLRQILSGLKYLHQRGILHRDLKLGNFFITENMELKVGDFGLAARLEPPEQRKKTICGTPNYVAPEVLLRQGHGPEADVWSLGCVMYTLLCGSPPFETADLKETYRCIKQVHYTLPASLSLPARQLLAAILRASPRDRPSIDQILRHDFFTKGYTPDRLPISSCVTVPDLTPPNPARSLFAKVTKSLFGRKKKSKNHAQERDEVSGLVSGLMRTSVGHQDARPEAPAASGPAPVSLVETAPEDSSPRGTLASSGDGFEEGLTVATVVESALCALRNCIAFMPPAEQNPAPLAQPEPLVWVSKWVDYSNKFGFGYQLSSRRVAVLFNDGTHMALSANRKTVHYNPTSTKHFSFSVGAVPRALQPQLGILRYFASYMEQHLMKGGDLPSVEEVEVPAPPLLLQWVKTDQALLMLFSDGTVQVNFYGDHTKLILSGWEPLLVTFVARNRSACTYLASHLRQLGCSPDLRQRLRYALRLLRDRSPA

SMILES | tested on | test | system | setting | endpoint | value
COC(=O)c1cc(-c2cccc(NC(=S)Nc3cccc(Cl)c3)c2)on1 | Mycobacteroides chelonae | microbial growth, broth dilution | ATCC35752 | 48 h | MIC | > 64 µg/mL
C[C@]12CC[C@H](n3ccnc3)CC1=CC[C@@H]1[C@@H]2CC[C@]2(C)C(n3cnc4ccccc43)=CC[C@@H]12 | LNCaP | cell growth or viability, MTT |  |  | GI50 | 0.2 µM
[2H]c1c([2H])c([C@]2([2H])CCCN2C(=O)C(C)(C)Oc2ccc3cn[nH]c3c2)c([2H])c([2H])c1C([2H])([2H])[2H] | PLK3 (Homo sapiens, UniProt Q9H4B4) | binding, competition with immobilised ligand |  | 1 µM | remaining binding | 89%
Nc1ncc(-c2nc(N3CCOCC3)nc(N3CCOCC3)n2)c(C(F)F)n1 | TEC (Homo sapiens, UniProt P42680) | binding, competition with immobilised ligand |  | 10 µM | remaining binding | 58%
COc1ccc(-c2cc(C)c3c(N)c(C(=O)Nc4cccc(C)c4C)sc3n2)cc1 | Mycobacterium tuberculosis | microbial growth | H37RV |  | IC50 | > 100 µM
Cc1ccccc1C=Nc1ccc(SCc2cc(=O)c(O)co2)cc1 |  | DPPH scavenging, absorbance |  | 30 min | IC50 | 21 µM
COC(=O)c1cc(-c2cccc(NC(=O)Nc3cc(OC)ccc3OC)c2)on1 | Klebsiella pneumoniae | microbial growth, broth dilution | BAA1705 |  | MIC | > 64 µg/mL
CCCn1c(O)nnc1SCC(=O)Nc1cc(Cl)ccc1Cl | PFF0160c E182D | enzyme activity, inhibitor, absorbance |  |  | IC50 | 3.69 µM
N.N.[Cl][Pt][Cl] | SUP-B15 | cell growth or viability, ATP luminescence |  | 10 µM, 72 h | inhibition | 98%
C#Cc1ccc(C=NNC(=O)c2ccc(Br)c(Br)c2)c(O)c1 | Candida albicans | microbial growth |  | pH 7.4 | MIC80 | 8 µg/mL (≈ 19 µM)
O=c1cc(CSc2ccc(N=Cc3ccccc3Br)cc2)occ1O |  | DPPH scavenging, absorbance |  | 30 min | IC50 | 66.9 µM
COc1ccc(-c2ccc3c(N)c(C(=O)Nc4cccc(C)c4C)sc3n2)cc1 | Mycobacterium tuberculosis | microbial growth | H37RV |  | IC50 | > 100 µM
C#Cc1cccc(O)c1C=NNC(=O)c1ccc(Br)c(Br)c1 | Candida albicans | microbial growth |  | pH 7.4 | MIC80 | 16 µg/mL (≈ 37.9 µM)
Nc1ncnc2c([C@@H]3N[C@H](CO)[C@@H](O)[C@H]3O)c[nH]c12 | unidentified influenza virus | viral replication, inhibitor | MDCK | 94.7 µM | inhibition | 97.6%
COc1ccc(-c2cc(C(F)(F)F)c3c(N)c(C(=O)N4CCCCC4)sc3n2)cc1 | Mycobacterium tuberculosis | microbial growth | H37RV |  | IC50 | > 100 µM
Cc1nn(C)cc1-c1nc2c(N3CCN(Cc4ccc(Cl)cc4)CC3)c(Cl)cnc2[nH]1 | KIT (Homo sapiens, UniProt P10721, L576P) | binding, competition with immobilised ligand |  | 1 µM | remaining binding | 19%
COC(=O)c1cc(-c2cccc(NC(=O)NCc3ccccc3)c2)on1 | Klebsiella pneumoniae | microbial growth, broth dilution | BAA1705 |  | MIC | > 64 µg/mL
Cc1ccc2c(CNCC3(N4CCCC4)COC3)c[nH]c2c1 | A 172 | cell growth or viability |  | 30 µM, 48 h | viability | 55.6%
CC[C@H](C)[C@H](NC(=O)[C@H](Cc1ccccc1)NC(=O)[C@H](CCC(=O)O)NC(=O)[C@H](CCCNC(=N)N)NC(=O)[C@H](C)NC(=O)[C@H](C)NC(=O)[C@H](CCC(N)=O)NC(=O)[C@H](CCC(=O)O)NC(=O)[C@H](CCC(=O)O)NC(=O)[C@H](CC(C)C)NC(=O)[C@H](Cc1ccc(O)cc1)NC(=O)[C@H](CO)NC(=O)[C@H](CO)NC(=O)[C@@H](NC(=O)[C@H](CC(=O)O)NC(=O)[C@H](CO)NC(=O)[C@@H](NC(=O)[C@H](Cc1ccccc1)NC(=O)[C@@H](NC(=O)CNC(=O)[C@H](CCC(=O)O)NC(=O)[C@H](C)NC(=O)CCc1c[nH]cn1)[C@@H](C)O)[C@@H](C)O)C(C)C)C(=O)N[C@@H](C)C(=O)N[C@@H](Cc1c[nH]c2ccccc12)C(=O)N[C@@H](CC(C)C)C(=O)N[C@H](C(=O)N[C@@H](CCCNC(=N)N)C(=O)NCC(=O)N[C@@H](CCCNC(=N)N)C(=O)N[C@@H](CCCCNC(=O)COCCOCCNC(=O)COCCOCCNC(=O)CC[C@H](NC(=O)CCCCCCCCCCCCCCCCC(=O)O)C(=O)O)C(=O)NCC(=O)NCC(=O)N[C@@H](CO)C(=O)N[C@@H](CCCCNc1c(NCCCCCN(O)C(=O)CCC(=O)NCCCCCN(O)C(=O)CCC(=O)NCCCCCN(O)C(C)=O)c(=O)c1=O)C(=O)O)C(C)C |  |  | rat, plasma | subcutaneous, 20 nmol/kg | AUC | 1.31 µM·h
COc1ccccc1N1CCN(Cc2c(NC(C)=O)sc(C)c2C)CC1 | PFF0160c E182D | enzyme activity, inhibitor, absorbance |  |  | IC50 | 0.568 µM
COc1ccc(-c2ccc3c(N)c(C(=O)N4CCOCC4)sc3n2)cc1OC | Mycobacterium tuberculosis | microbial growth | H37RV |  | IC50 | 62 µM

SMILES | tested on | test | system | setting | endpoint | value
COC(=O)c1cc(-c2cccc(NC(=O)Nc3ccc(C)c(Cl)c3)c2)on1 | Mycolicibacterium fortuitum | microbial growth, broth dilution | ATCC6841 | 48 h | MIC | > 64 µg/mL
Nc1c(C(=O)N2CC(F)(F)C2)sc2ncccc12 | Mycobacterium tuberculosis | microbial growth | H37RV |  | IC50 | > 100 µM
COC(=O)c1cc(-c2cccc(NC(=S)Nc3ccc(C)cc3)c2)on1 | Pseudomonas aeruginosa | microbial growth, broth dilution | ATCC27853 |  | MIC | > 64 µg/mL
C#Cc1cccc(C(=O)NN=Cc2cc(C#C)ccc2O)c1 | Candida albicans | microbial growth |  | pH 7.4 | MIC80 | 0.06 µg/mL (≈ 0.208 µM)
CN(C)C(=O)c1sc2ncccc2c1N | Mycobacterium tuberculosis | microbial growth | H37RV |  | IC50 | > 100 µM
COC(=O)c1cc(-c2cccc(NC(=S)Nc3cccc(Br)c3)c2)on1 | Pseudomonas aeruginosa | microbial growth, broth dilution | ATCC27853 |  | MIC | > 64 µg/mL
CCOC(=O)C1=C[C@@H](OC(CC)CC)[C@H](NC(C)=O)[C@@H](N)C1 | Human coronavirus 229E | cytopathic effect | A549 | 12.5 µM | inhibition | 52.8%
COc1cnc(OC)n2nc(NS(=O)(=O)c3c(OCC(F)F)cccc3C(F)(F)F)nc12 | HaCaT | cell growth or viability, CCK-8 |  | 12.5 µM, 72 h | inhibition | 0.54%
CN1C(=O)C(C2C3=C(CC(C)(C)CC3=O)Oc3c(O)cccc32)C(=O)N(C)C1=O (stereo not drawn) | 3T3-L1 | cell growth or viability, MTT |  | 72 h | IC50 | > 100 µg/mL
O=c1cc(CSc2ccc(N=Cc3cccc(F)c3)cc2)occ1O |  | DPPH scavenging, absorbance |  | 30 min | IC50 | 86.6 µM
COc1ccc(-c2cc(C(F)(F)F)c3c(N)c(C(=O)Nc4cccc(C)c4C)sc3n2)cn1 | Mycobacterium tuberculosis | microbial growth | H37RV |  | IC50 | 1 µM
COC(=O)c1cc(-c2cccc(NC(=O)Nc3ccc(Cl)cc3)c2)on1 | Mycolicibacterium fortuitum | microbial growth, broth dilution | ATCC6841 | 48 h | MIC | > 64 µg/mL
Cc1ccc(NC(=O)c2sc3nc(C)cc(C(F)(F)F)c3c2N)cc1 | Mycobacterium tuberculosis | microbial growth | H37RV |  | IC50 | > 100 µM
COC(=O)c1cc(-c2cccc(NC(=O)Nc3cccc(Cl)c3)c2)on1 | Mycolicibacterium fortuitum | microbial growth, broth dilution | ATCC6841 | 48 h | MIC | > 64 µg/mL
CC(C)C[C@H](NC(=O)[C@H](Cc1ccccc1)NC(=O)[C@H](Cc1ccccc1)NC(=O)Cc1ccc(-c2ccccc2)cc1)C(=O)N[C@@H](CCCCN)C(=O)N[C@@H](CCCNC(=N)N)C(=O)N[C@H](C(=O)N[C@@H](Cc1c[nH]c2ccccc12)C(=O)N[C@@H](CCCCN)C(=O)N[C@@H](CCCNC(=N)N)C(=O)O)C(C)C |  | metabolic stability | dog, liver microsomes | 1 h | compound remaining | 33.9%
C#Cc1ccc(C(=O)NN=Cc2cc(C#C)ccc2O)cc1 | Cryptococcus neoformans | microbial growth, broth dilution |  | pH 7.4 | MIC80 | 0.015 µg/mL (≈ 0.052 µM)
O=c1cc(CSc2ccc(N=Cc3ccc(F)cc3)cc2)occ1O |  | DPPH scavenging, absorbance |  | 30 min | IC50 | 43.7 µM
C#Cc1cccc(C=NNC(=O)c2ccc(Br)c(Br)c2)c1O | Candida albicans | microbial growth |  | pH 7.4 | MIC80 | 0.5 µg/mL (≈ 1.18 µM)
C#Cc1n[nH]c2c(-c3cn([C@@H](C)c4ccccn4)c(=O)[nH]c3=O)cc(F)cc12 | Cyclin-dependent kinase 2, with cyclin E1 (CDK2, Homo sapiens, UniProt P24941) | enzyme activity, inhibitor |  | 0.1 µM | inhibition | -9%
C#Cc1ccc(O)c(C=NNC(=O)c2ccc(Br)cc2Br)c1 | Cryptococcus neoformans | microbial growth, broth dilution |  | pH 7.4 | MIC80 | 0.03 µg/mL (≈ 0.0711 µM)
COc1ncccc1-c1cnn2ccc(N3CCN(C(=O)OC(C)C)CC3)nc12 | CDK17 (Homo sapiens, UniProt Q00537) | binding, competition with immobilised ligand |  | 1 µM | remaining binding | 100%
